{"data": "Experimental data gathered from unrelated publications", "note": "Every numbered part comes from another study and shows a few of its results, in no order.", "UniProt Q7KZI7, sequence (whole entry, looked up)": "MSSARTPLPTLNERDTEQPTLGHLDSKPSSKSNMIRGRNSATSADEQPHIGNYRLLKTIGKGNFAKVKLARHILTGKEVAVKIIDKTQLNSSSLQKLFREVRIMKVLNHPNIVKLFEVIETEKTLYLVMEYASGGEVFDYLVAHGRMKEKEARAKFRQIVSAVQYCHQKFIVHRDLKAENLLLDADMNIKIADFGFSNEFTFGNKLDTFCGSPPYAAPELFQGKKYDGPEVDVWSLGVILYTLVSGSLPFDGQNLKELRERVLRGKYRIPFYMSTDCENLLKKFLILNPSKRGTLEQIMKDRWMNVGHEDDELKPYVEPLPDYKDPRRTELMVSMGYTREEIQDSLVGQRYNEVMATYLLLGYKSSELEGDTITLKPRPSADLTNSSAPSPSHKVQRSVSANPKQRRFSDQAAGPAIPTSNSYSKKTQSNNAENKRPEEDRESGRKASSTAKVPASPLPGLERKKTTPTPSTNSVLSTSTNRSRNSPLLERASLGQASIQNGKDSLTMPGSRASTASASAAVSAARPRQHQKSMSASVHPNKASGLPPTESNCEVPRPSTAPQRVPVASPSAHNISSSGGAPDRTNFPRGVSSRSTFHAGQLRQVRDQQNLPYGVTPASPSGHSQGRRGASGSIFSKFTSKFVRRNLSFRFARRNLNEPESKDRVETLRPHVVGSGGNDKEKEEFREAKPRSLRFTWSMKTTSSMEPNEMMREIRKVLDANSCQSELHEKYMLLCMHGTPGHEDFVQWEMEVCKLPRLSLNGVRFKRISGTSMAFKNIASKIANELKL", "UniProt P00519, sequence (whole entry, unmodified, looked up)": "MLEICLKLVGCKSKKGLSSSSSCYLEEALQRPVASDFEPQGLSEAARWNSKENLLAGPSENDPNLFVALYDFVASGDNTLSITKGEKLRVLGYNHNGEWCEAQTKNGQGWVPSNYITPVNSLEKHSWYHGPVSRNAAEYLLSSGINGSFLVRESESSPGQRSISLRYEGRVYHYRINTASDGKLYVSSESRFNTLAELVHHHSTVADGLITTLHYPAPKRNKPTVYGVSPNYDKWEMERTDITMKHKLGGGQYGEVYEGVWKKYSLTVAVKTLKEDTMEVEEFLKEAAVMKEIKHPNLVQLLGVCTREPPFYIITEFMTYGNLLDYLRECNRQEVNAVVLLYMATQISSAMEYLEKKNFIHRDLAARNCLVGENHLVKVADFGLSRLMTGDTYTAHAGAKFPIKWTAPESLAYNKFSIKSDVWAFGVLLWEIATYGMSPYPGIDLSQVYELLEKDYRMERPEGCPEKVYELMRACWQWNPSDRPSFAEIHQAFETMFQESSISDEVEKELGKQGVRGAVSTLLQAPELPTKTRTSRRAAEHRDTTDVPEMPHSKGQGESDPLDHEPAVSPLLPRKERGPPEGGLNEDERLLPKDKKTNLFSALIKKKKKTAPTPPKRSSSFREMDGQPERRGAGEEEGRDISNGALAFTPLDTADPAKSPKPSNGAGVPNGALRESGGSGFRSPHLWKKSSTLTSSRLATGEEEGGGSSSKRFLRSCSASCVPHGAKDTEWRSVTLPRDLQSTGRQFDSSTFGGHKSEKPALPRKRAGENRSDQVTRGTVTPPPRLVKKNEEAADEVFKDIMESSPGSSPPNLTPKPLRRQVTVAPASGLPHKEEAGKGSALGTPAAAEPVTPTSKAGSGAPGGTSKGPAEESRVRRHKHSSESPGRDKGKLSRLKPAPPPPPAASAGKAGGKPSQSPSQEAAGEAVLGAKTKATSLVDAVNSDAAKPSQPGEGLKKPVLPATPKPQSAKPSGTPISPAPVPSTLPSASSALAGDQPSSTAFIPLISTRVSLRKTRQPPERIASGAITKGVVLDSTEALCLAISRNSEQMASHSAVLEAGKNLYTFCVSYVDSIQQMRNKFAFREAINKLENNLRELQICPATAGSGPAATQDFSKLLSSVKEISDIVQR", "UniProt Q9UKI8, sequence (whole entry, looked up)": "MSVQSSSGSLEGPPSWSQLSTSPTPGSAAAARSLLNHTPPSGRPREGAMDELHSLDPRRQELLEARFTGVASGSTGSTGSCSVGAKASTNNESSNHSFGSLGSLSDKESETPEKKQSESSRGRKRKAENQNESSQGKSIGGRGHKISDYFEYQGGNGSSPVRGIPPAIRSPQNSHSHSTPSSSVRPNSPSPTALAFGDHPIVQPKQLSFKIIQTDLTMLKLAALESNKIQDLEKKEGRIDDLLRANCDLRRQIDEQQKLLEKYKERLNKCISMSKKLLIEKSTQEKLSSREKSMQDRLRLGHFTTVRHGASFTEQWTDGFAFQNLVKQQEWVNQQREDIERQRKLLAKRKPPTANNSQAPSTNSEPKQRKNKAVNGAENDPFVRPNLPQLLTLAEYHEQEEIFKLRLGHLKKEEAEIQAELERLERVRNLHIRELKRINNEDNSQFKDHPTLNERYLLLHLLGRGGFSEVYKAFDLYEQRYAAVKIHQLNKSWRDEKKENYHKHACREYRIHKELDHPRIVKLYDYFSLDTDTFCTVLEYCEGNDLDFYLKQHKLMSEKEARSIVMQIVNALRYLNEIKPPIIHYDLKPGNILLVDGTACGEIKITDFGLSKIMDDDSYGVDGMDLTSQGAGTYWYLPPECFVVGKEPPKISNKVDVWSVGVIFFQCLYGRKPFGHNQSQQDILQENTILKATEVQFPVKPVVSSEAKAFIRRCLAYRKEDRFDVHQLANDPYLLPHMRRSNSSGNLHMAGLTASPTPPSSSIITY", "UniProt Q9UF33, sequence (whole entry, looked up)": "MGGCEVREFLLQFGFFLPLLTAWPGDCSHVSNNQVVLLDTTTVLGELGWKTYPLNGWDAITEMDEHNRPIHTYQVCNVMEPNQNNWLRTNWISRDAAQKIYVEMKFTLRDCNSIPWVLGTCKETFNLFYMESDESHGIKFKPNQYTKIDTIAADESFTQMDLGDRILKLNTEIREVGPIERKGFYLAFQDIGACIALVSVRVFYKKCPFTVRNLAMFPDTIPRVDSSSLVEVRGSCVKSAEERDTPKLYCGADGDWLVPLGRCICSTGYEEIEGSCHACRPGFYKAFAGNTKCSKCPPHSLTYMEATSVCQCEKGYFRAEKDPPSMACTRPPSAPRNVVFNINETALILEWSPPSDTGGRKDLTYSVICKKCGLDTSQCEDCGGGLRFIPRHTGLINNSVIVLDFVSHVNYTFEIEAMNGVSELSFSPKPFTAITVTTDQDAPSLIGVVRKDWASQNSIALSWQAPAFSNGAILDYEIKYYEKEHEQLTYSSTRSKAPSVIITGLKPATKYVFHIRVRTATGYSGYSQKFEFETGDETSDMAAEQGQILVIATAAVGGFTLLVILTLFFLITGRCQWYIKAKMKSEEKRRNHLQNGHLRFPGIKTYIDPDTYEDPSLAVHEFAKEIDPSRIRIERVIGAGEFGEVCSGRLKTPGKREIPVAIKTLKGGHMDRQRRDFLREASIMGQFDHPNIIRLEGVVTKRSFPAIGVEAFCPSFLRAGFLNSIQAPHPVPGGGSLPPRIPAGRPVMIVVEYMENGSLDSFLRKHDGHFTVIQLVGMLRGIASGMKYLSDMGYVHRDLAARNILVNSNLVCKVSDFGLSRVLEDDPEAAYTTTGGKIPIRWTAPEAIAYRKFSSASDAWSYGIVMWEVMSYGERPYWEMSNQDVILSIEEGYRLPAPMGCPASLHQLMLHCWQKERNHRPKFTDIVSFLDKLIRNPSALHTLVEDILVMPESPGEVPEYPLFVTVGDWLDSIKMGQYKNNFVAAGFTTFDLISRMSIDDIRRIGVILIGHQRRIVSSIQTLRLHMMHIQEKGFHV", "UniProt Q9BZL6, sequence (whole entry, looked up)": "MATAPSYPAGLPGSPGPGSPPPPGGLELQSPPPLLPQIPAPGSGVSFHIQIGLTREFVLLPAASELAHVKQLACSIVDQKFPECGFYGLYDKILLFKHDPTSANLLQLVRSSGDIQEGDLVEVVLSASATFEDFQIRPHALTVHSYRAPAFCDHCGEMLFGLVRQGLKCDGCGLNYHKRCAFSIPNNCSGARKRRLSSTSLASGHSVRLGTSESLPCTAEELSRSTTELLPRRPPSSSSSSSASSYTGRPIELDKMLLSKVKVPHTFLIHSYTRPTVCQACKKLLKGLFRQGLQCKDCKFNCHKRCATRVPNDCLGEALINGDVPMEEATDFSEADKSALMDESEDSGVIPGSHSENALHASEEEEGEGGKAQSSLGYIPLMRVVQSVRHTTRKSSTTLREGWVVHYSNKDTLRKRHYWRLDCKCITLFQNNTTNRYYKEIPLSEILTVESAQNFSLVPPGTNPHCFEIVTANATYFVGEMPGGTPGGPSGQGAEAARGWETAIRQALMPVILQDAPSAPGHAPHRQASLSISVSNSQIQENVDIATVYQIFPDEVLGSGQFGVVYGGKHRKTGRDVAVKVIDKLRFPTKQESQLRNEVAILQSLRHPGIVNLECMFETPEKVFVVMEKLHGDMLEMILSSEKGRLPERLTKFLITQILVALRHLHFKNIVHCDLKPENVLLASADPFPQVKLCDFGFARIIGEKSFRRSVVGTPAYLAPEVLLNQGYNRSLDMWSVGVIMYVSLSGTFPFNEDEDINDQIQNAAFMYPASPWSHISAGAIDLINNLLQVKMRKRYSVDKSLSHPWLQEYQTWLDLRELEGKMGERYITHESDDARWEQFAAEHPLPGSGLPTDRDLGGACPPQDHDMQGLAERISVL"}
{"data": "Study 1", "target": "Prothrombin, mature alpha-thrombin (F2, Homo sapiens, UniProt P00734)", "method": "aptamer microarray, sandwich", "form": "DNA with 2'F-ANA", "medium": "in vitro", "concentration": "200 nM", "setting": "whole 15-mer aptamer, many near background", "added": "Cy3 exosite-II aptamer, 400 nM", "direction": "higher = stronger binding", "oligonucleotide": "GGTTGGTGTGGTTGG"}
{"Modification": "2'F-ANA at 1 3 5 6 7 10 15", "mean fluorescence intensity": "106 a.u."}
{"Modification": "2'F-ANA at 2 4 8 9 10 11 12 13 15", "mean fluorescence intensity": "87.4 a.u."}
{"Modification": "2'F-ANA at 3 4 6 10 11 13", "mean fluorescence intensity": "213 a.u."}
{"Modification": "2'F-ANA at 4 5 6 9 11 12 13", "mean fluorescence intensity": "94.5 a.u."}
{"Modification": "2'F-ANA at 2 3 5 6 10 11 12 14", "mean fluorescence intensity": "47.8 a.u."}
{"Modification": "2'F-ANA at 1 3 5 8 10 11 13 14 15", "mean fluorescence intensity": "45.3 a.u."}
{"Modification": "2'F-ANA at 3 5 7 9 10 12 14 15", "mean fluorescence intensity": "56.5 a.u."}
{"Modification": "2'F-ANA at 3 9 11", "mean fluorescence intensity": "1060 a.u."}
{"data": "Study 2", "SMILES": "CN(c1ccnc(CNc2nc(Nc3ccc4c(c3)CC(=O)N4)ncc2C(F)(F)F)n1)S(C)(=O)=O", "method": "competition with immobilised ligand", "concentration": "1 µM"}
{"target": "Serine/threonine-protein kinase MARK2 (MARK2, Homo sapiens, UniProt Q7KZI7)", "test": "cell-free assay", "remaining binding": "47%"}
{"target": "Ephrin type-B receptor 4 (EPHB4, Homo sapiens, UniProt P54760)", "test": "cell-free assay", "remaining binding": "96%"}
{"target": "Serine/threonine-protein kinase tousled-like 1 (TLK1, Homo sapiens, UniProt Q9UKI8)", "test": "cell-free assay", "remaining binding": "79%"}
{"target": "Serine/threonine-protein kinase D2 (PRKD2, Homo sapiens, UniProt Q9BZL6)", "test": "cell-free assay", "remaining binding": "92%"}
{"target": "Serine/threonine-protein kinase pim-3 (PIM3, Homo sapiens, UniProt Q86V86)", "test": "cell-free assay", "remaining binding": "77%"}
{"target": "Tyrosine-protein kinase ABL1, phosphorylated (ABL1, Homo sapiens, UniProt P00519, E255K)", "test": "binding", "remaining binding": "34%"}
{"target": "Ribosomal protein S6 kinase alpha-1, C-terminal kinase domain (RPS6KA1, Homo sapiens, UniProt Q15418)", "test": "cell-free assay", "remaining binding": "68%"}
{"target": "MAP/microtubule affinity-regulating kinase 3 (MARK3, Homo sapiens, UniProt P27448)", "test": "cell-free assay", "remaining binding": "52%"}
{"target": "Receptor tyrosine-protein kinase erbB-2 (ERBB2, Homo sapiens, UniProt P04626)", "test": "cell-free assay", "remaining binding": "100%"}
{"target": "Activin receptor type-1 (ACVR1, Homo sapiens, UniProt Q04771)", "test": "cell-free assay", "remaining binding": "91%"}
{"target": "Dual specificity protein kinase CLK3 (CLK3, Homo sapiens, UniProt P49761)", "test": "cell-free assay", "remaining binding": "12%"}
{"target": "Tyrosine-protein kinase Fyn (FYN, Homo sapiens, UniProt P06241)", "test": "cell-free assay", "remaining binding": "59%"}
{"target": "Serine/threonine-protein kinase WNK4 (WNK4, Homo sapiens, UniProt Q96J92)", "test": "binding", "remaining binding": "0%"}
{"target": "Non-receptor tyrosine-protein kinase TYK2, JH2 (TYK2, Homo sapiens, UniProt P29597)", "test": "cell-free assay", "remaining binding": "59%"}
{"target": "Mitogen-activated protein kinase kinase kinase kinase 4 (MAP4K4, Homo sapiens, UniProt O95819)", "test": "cell-free assay", "remaining binding": "82%"}
{"target": "Ephrin type-A receptor 6 (EPHA6, Homo sapiens, UniProt Q9UF33)", "test": "cell-free assay", "remaining binding": "85%"}
{"target": "Serine/threonine-protein kinase RIO2 (RIOK2, Homo sapiens, UniProt Q9BVS4)", "test": "cell-free assay", "remaining binding": "81%"}
{"data": "Study 3", "target": "Mitogen-activated protein kinase kinase kinase 20 (MAP3K20, Homo sapiens, UniProt Q9NYL2)", "observed": "enzyme activity", "action": "inhibitor", "concentration": "0.5 µM", "relative to": "control"}
{"SMILES": "Nc1ccc2ncnc(NCCc3ccc(Oc4ccccc4)cc3)c2c1", "remaining activity": "102%"}
{"SMILES": "O=C(O)c1ccc2c3c1cccc3c(=O)n1c3ccccc3nc21", "remaining activity": "100%"}
{"SMILES": "COc1ccc(OC)c2c(=S)c3ccccc3[nH]c12", "remaining activity": "94%"}
{"SMILES": "O=S(=O)(c1cccc2cnccc12)N1CCCNCC1", "remaining activity": "101%"}
{"SMILES": "Cn1sc(=O)n(Cc2ccccc2)c1=O", "remaining activity": "100%"}
{"SMILES": "COc1ccc(C(=O)Nc2sc3c(c2C(N)=O)CCCC3)cc1OC", "remaining activity": "93.8%"}
{"SMILES": "O=C(CCCc1ccc(-c2ccccc2F)cc1)Nc1ccc(O)cc1", "remaining activity": "97.8%"}
{"SMILES": "O=C1NC(=O)C(c2cn(CCCn3ccnc3)c3ccccc23)=C1Nc1ccccc1", "remaining activity": "104%"}
{"SMILES": "COc1cc2nccc(Oc3ccc(NC(=S)NC(=O)c4ccccc4C)cc3)c2cc1OC", "remaining activity": "71.7%"}
{"SMILES": "CCOC(=O)c1c(C)[nH]c(/C=C2\\C(=O)Nc3ccccc32)c1C", "remaining activity": "92.7%"}
{"SMILES": "CC(C)[C@H](CO)Nc1nc(Nc2cc(N)cc(Cl)c2)c2ncn(C(C)C)c2n1", "remaining activity": "92.3%"}
{"SMILES": "Cc1cccc(-c2[nH]c(C(C)(C)C)nc2-c2ccc3c(c2)OCO3)n1", "remaining activity": "97.8%"}
{"data": "Study 4", "target": "Phosphate system positive regulatory protein PHO4, full length, GST-tagged (PHO4, Saccharomyces cerevisiae, UniProt P07270, residues 1-312)", "method": "competition protein-binding microarray", "form": "double-stranded DNA, one strand shown", "medium": "in vitro", "concentration": "2 µM", "setting": "whole 60-bp probe, lowest competitor level", "added": "Cbf1 competitor, 0.05 µM", "direction": "higher = stronger binding", "shared flanks, not repeated": "… GTCTTGATTCGCTTGACGCTGCTG", "Residues (chain)": "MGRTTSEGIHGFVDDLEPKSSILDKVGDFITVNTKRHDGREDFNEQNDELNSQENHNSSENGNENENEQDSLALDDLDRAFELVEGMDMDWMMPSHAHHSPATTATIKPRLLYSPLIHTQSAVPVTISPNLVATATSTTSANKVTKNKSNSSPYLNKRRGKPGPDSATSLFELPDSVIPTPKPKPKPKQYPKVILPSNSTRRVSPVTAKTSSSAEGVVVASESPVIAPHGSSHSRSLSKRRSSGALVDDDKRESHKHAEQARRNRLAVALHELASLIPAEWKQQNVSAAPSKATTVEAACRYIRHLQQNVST"}
{"Oligonucleotide": "CGAATCCGGAAAAACTACGTGACGGGAACGATGACC", "fluorescence intensity": "5700 a.u."}
{"Oligonucleotide": "GACGACAACAACTGTCATGTGGAAGATAGCCAAAAT", "fluorescence intensity": "7440 a.u."}
{"Oligonucleotide": "TGGGTACAAAGCAGTGTCGTGCTTTTCCAAGGCATC", "fluorescence intensity": "6350 a.u."}
{"Oligonucleotide": "GTCTTGTCTCATTGTACCGTGGGTGTCCCCACTTCA", "fluorescence intensity": "7460 a.u."}
{"Oligonucleotide": "CAAGGATTCCTAATTCACGTGCAAAAGCAACCGGAT", "fluorescence intensity": "13200 a.u."}
{"Oligonucleotide": "ATGTTAGCCTTTCACCACGTTCAGCAACCTTGTTGA", "fluorescence intensity": "9870 a.u."}
{"Oligonucleotide": "TGATATTCTGGCCGTCACGTCTTCTTTGTTTTCTTT", "fluorescence intensity": "5320 a.u."}
{"Oligonucleotide": "CTTCTGTAAATTTGCATTGTGGGTGGACGCGCCCCG", "fluorescence intensity": "5100 a.u."}
{"note": "Some of these lines once more (study 1):"}
{"Modification": "2'F-ANA at 3 5 7 9 10 12 14 15", "mean fluorescence intensity": "56.5 a.u."}
{"Modification": "2'F-ANA at 3 9 11", "mean fluorescence intensity": "1060 a.u."}
{"Modification": "2'F-ANA at 2 4 8 9 10 11 12 13 15", "mean fluorescence intensity": "87.4 a.u."}
{"Modification": "2'F-ANA at 1 3 5 6 7 10 15", "mean fluorescence intensity": "106 a.u."}
{"Modification": "2'F-ANA at 1 3 5 8 10 11 13 14 15", "mean fluorescence intensity": "45.3 a.u."}
{"Modification": "2'F-ANA at 3 4 6 10 11 13", "mean fluorescence intensity": "213 a.u."}
